Measurements from different studies.
Lines come from different studies, so protocols differ. Several values in a cell are separate wells, animals, samples, runs or records. ± marks the error that the study gave.
EPHB4: Ephrin type-B receptor 4 (EPHB4, Homo sapiens, UniProt P54760)
Sequence of UniProt Q9Y2J8 (whole entry, looked up): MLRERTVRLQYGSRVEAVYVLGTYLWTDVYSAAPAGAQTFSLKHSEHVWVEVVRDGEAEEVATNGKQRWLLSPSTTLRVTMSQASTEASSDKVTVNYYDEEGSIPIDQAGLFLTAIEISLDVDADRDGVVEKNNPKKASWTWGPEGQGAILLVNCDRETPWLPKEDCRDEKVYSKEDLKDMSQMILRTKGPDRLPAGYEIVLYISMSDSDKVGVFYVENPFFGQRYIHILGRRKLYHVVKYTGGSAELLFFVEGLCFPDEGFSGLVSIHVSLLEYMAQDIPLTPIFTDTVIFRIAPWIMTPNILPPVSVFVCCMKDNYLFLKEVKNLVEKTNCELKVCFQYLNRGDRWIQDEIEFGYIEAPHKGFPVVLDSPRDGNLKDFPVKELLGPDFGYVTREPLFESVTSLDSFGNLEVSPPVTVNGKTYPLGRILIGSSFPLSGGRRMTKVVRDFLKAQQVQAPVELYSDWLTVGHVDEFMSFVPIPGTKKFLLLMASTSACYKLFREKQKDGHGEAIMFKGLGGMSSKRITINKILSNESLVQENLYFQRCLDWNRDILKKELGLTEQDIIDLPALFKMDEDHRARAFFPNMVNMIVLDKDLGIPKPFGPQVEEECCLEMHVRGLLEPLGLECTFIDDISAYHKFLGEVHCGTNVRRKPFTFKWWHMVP
Sequence of UniProt P54760 (whole entry, looked up): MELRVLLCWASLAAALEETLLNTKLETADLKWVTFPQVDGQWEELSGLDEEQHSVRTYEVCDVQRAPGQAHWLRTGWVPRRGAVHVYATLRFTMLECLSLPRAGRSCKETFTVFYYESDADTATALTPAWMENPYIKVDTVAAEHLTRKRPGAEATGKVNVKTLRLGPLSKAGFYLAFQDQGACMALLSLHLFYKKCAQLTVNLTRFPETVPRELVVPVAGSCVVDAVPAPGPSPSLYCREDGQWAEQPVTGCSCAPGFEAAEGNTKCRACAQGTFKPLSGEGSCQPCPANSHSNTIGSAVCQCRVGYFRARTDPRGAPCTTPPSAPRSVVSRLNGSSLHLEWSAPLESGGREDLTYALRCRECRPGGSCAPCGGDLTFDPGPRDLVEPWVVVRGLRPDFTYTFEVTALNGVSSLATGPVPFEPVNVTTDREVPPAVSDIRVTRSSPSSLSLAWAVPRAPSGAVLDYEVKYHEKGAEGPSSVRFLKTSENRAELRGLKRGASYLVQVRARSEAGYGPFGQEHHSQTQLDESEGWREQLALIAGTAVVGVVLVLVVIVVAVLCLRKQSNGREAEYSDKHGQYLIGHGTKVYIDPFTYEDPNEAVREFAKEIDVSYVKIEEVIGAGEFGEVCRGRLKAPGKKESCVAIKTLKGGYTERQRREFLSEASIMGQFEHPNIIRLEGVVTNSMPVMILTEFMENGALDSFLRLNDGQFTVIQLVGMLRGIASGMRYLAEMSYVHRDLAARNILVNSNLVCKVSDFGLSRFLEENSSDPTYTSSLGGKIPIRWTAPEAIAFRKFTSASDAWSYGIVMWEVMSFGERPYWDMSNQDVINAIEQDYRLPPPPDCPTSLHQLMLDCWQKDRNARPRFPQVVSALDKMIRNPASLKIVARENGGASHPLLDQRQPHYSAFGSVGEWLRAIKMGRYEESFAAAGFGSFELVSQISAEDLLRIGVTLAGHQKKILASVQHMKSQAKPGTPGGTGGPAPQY
Sequence of UniProt Q3UFF7 (whole entry, looked up): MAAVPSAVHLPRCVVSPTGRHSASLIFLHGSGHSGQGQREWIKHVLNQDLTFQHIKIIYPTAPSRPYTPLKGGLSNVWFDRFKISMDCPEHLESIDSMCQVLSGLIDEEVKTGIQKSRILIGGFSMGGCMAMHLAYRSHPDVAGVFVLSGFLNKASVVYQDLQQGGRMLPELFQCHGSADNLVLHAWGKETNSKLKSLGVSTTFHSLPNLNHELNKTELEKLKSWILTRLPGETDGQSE
Sequence of UniProt P10721 (whole entry, unmodified, looked up): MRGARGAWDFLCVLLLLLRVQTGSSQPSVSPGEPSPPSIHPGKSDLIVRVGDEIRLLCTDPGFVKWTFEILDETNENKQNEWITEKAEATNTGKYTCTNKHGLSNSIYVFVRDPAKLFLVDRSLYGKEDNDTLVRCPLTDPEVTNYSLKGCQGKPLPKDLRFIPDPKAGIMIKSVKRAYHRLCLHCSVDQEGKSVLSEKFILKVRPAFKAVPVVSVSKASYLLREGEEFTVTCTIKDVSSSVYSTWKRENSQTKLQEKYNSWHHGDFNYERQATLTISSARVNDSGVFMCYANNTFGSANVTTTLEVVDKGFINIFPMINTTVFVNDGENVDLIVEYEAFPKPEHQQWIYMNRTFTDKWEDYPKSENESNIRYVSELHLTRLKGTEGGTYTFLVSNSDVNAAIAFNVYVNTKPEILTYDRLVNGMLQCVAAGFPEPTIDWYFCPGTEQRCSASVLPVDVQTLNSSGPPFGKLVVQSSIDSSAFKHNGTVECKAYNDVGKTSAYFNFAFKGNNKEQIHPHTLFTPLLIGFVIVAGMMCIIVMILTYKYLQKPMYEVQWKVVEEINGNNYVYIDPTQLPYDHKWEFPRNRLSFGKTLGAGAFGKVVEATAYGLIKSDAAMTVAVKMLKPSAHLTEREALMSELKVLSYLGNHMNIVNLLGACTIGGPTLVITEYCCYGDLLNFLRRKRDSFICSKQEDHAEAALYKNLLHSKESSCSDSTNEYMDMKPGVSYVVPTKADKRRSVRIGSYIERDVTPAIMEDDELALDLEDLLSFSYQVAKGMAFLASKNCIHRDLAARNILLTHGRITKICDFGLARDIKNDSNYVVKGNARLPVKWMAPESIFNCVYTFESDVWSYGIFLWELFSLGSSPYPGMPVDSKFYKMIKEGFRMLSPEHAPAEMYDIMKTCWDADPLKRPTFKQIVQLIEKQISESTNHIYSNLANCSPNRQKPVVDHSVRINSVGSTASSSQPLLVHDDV
Sequence of UniProt P21554 (whole entry, unmodified, looked up): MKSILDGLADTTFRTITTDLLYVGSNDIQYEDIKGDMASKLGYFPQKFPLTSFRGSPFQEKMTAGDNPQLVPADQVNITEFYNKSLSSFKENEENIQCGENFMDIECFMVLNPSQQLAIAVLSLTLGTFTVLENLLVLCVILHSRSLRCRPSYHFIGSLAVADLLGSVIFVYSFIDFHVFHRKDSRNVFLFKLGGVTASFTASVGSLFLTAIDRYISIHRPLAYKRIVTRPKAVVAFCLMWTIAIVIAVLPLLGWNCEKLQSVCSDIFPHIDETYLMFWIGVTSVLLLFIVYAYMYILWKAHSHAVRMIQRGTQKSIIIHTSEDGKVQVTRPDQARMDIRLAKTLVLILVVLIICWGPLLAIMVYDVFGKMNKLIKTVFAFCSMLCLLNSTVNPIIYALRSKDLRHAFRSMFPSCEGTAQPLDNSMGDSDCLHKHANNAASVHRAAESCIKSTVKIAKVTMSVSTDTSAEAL
Sequence of UniProt P08172 (whole entry, looked up): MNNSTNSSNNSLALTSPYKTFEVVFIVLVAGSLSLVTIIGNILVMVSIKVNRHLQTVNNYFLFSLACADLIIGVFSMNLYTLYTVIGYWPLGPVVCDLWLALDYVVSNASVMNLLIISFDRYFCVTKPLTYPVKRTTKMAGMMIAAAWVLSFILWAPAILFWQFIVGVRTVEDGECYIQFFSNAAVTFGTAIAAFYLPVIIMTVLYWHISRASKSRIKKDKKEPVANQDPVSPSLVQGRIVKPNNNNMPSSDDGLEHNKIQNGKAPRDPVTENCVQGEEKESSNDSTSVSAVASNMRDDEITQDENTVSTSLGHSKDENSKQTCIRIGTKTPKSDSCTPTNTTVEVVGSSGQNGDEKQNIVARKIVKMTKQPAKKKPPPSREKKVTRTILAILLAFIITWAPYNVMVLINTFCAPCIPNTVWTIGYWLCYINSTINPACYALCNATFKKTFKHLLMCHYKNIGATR
Sequence of UniProt O75582 (whole entry, looked up): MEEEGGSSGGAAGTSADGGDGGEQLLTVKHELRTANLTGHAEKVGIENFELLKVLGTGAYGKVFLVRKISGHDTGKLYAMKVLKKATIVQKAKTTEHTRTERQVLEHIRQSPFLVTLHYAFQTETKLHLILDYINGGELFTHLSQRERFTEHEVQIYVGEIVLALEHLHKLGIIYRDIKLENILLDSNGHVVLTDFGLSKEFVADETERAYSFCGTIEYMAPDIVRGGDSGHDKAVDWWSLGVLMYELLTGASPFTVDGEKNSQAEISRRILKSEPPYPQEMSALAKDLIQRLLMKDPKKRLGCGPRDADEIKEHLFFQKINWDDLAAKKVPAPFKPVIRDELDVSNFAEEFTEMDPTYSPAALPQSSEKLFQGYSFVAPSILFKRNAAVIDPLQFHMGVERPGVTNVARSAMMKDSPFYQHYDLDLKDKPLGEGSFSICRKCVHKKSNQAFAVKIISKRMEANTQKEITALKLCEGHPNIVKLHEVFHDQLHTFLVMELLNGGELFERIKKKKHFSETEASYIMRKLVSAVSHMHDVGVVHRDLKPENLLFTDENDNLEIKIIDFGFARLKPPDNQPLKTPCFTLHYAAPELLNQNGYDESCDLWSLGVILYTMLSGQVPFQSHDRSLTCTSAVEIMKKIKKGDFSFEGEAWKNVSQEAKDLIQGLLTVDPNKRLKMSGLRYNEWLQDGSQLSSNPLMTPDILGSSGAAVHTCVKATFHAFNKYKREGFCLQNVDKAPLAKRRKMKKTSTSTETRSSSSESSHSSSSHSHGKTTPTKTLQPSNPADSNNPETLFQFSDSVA
Sequence of UniProt P49674 (whole entry, looked up): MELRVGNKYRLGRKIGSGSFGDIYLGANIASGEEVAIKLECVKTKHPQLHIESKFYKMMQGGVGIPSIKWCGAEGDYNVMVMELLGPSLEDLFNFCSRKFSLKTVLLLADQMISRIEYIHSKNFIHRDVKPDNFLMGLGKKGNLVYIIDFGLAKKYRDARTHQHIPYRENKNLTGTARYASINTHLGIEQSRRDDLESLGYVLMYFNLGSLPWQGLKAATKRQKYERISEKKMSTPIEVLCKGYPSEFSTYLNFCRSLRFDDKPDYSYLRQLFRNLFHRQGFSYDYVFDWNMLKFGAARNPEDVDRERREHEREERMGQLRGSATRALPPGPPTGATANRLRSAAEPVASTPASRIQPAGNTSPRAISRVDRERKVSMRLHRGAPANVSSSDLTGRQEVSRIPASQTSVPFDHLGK

SMILES | tested on | assay | test system | conditions | scale | measurement | value
O=C1NC2(CC2)COc2ncc(F)cc2[C@H]2COCCN2c2ccn3ncc1c3n2 |  |  | Sprague-Dawley rat, female, serum | oral, 10 mg/kg/day, 4 weeks daily, end of recovery period |  | total cholesterol | 1.59 ± 0.14 mmol/L
CS(C)(=O)=Nc1ccc(-c2ccc(-c3nc4cc(O[C@@H]5CO[C@H]6[C@@H]5OC[C@H]6O)[nH]c4cc3F)cc2)cc1 | EPHB4 | enzyme activity, inhibitor |  | 10 µM |  | inhibition | 12%
N[C@H](C(=O)N1CCCC1)C1CCN(c2nccc3c(-c4ncc(Cl)cc4Cl)cccc23)CC1 | PADI2 (Homo sapiens, UniProt Q9Y2J8) | enzyme activity |  | 0.01573 µM, high-affinity site, together with: Ca2+ 1.5 mM |  | kcat | 1.63 s⁻¹
Nc1ccc(/C=C/C(=O)N2CCc3c(oc4c(-c5ccc(F)cc5)cc(-c5ccc(C(=O)N6CCC(F)(F)CC6)cn5)cc34)C2)cn1 | KIT (Homo sapiens, UniProt P10721, T670I/V559D) | binding, competition with immobilised ligand |  | 1 µM |  | remaining binding | 99%
COc1ccccc1-c1n[nH]c2nc(NC3CCN(C(=O)Cc4ccc(F)cc4F)CC3)ncc12 | Leishmania CKS1 LINJ.32.3940 | bead competition pull-down | Leishmania donovani extract | 10 µM | relative to: vehicle | relative captured amount | 0.65 and 0.35
CC(C)CC(O)(CC(C)C)c1cn(C(=O)N2CCCC2)nn1 | Lysophospholipase-like protein 1 (Mus musculus, UniProt Q3UFF7) | probe labelling, inhibitor, measured: Lyplal1 | mouse, brain | i.p., 0.8 mg/kg, 4 h, protein level | relative to: treated over vehicle mice, lower = stronger inhibition | activity ratio-of-ratios | 1.58
CC(C)[C@H]1NC(=O)C[C@H]2/C=C/CCSSC[C@@H](NC1=O)C(=O)N[C@H](Cc1cccc3ccccc13)C(=O)NCC(=O)O2 | CSNK1E (Homo sapiens, UniProt P49674) | enzyme activity, inhibitor |  | 10 µM |  | inhibition | 7.1%
CC[C@H](C)[C@H](NC(=O)[C@H](CO)NC(=O)[C@H](Cc1ccc(O)cc1)NC(=O)[C@H](Cc1ccc(O)cc1)NC(=O)[C@H](CC(N)=O)NC(=O)CNC(=O)[C@H](CO)NC(=O)[C@H](Cc1ccc(O)cc1)NC(=O)[C@H](CO)NC(=O)[C@H](CO)NC(=O)[C@H](CC(N)=O)NC(=O)COCCOCCNC(=O)CN1CCN(CC(=O)O)CCN(CC(=O)O)CCN(CC(=O)O)CC1)C(=O)N[C@@H](CC(C)C)C(N)=O [copper-64 labelled] |  | dynamic PET | KPC mouse, pancreatic cancer model, tumor | intravenous, 1.1 min, 49 days after tamoxifen |  | tumour uptake | 13.5 %ID/mL
O=C1NC(=O)c2c1c1cc(F)c[n+]3c1c1c2c2cc(O)ccc2[n]1[Ru-4]312([N]=C=S)[S+]3CC[S+]1CC[S+]2CC3 (stereo not shown) | RPS6KA5 (Homo sapiens, UniProt O75582) | enzyme activity |  | 100 nM, human enzyme, together with: 10 µM ATP | relative to: untreated | remaining activity | 17%
CC(C)(C)C(=O)OCOP(=O)(OCOC(=O)C(C)(C)C)C1CCCN(O)C1=O (stereo not shown) | SNB-75 |  |  |  |  | log TGI | -4.54 log M
Cc1sc2c(c1C)C(c1ccc(Cl)cc1)=NC(CC(=O)OC(C)(C)C)c1nnc(C)n1-2 (stereo not shown) | CHRM2 (Homo sapiens, UniProt P08172) | ligand displacement, radioligand |  | 1 µM |  | remaining binding | 97.8%
CN(C)[C@H]1C[C@@]23CC[C@@]4(O2)C(=CC[C@]2(C)[C@@H](c5ccc6ccncc6c5)CC[C@H]24)C=C3[C@@H](O)[C@@H]1O | EPHB4 | ATP probe labelling, inhibitor, KiNativ profiling |  | 1 µM |  | inhibition | -3.4%
Cc1ccc2c(C(C[N+](=O)[O-])c3cccs3)c(-c3ccccc3)[nH]c2c1 (stereo not shown) | CNR1 (Homo sapiens, UniProt P21554, Y397A) | β-arrestin recruitment, agonist, luciferase |  |  |  | Emax | 34.4%

For quick reference, copied from above:
SMILES | tested on | assay | test system | conditions | scale | measurement | value
Cc1ccc2c(C(C[N+](=O)[O-])c3cccs3)c(-c3ccccc3)[nH]c2c1 (stereo not shown) | CNR1 (Homo sapiens, UniProt P21554, Y397A) | β-arrestin recruitment, agonist, luciferase |  |  |  | Emax | 34.4%
N[C@H](C(=O)N1CCCC1)C1CCN(c2nccc3c(-c4ncc(Cl)cc4Cl)cccc23)CC1 | PADI2 (Homo sapiens, UniProt Q9Y2J8) | enzyme activity |  | 0.01573 µM, high-affinity site, together with: Ca2+ 1.5 mM |  | kcat | 1.63 s⁻¹
